{"data": "Results of several laboratories", "CNR2": "Cannabinoid receptor 2 (CNR2, Homo sapiens, UniProt P34972)", "ESR1": "Estrogen receptor (ESR1, Homo sapiens, UniProt P03372)", "Kelch domain-containing protein 2": "Kelch domain-containing protein 2 (UniProt Q9Y2U9)", "note": "Each line is one published result; not all experiments were run side by side. Numbers after ± are the reported error. Where no end group is shown, it is not given here. The star is where a group is joined."}
{"Molecule": "NC(=O)CN1CCC[C@@H](CNC(=O)c2nn(Cc3ccc(F)cc3)c3ccccc23)C1", "target": "CNR2", "test": "calcium mobilization, agonist", "test system": "CHO-K1 expressing Gαq16", "how to read": "reference: CP55,940 maximum", "quantity": "Emax", "result": "41 ± 3%"}
{"Molecule": "O=C1C=CC(=O)C=C1", "target": "Enoyl-ACP reductase (Thermus thermophilus, UniProt P83818)", "test": "substrate, steady-state turnover", "quantity": "NAD(P)H oxidation rate", "result": "increased"}
{"Molecule": "O=C(O)[C@H]1NC[C@@H]2C(O)=NO[C@@H]21", "target": "Excitatory amino acid transporter 3 (Slc1a1, Rattus norvegicus, UniProt P51907)", "test": "inhibitor", "setting": "10 µM, forward transport mode, added: glutamate from MNI-caged glutamate photolysis", "quantity": "peak transient transport current", "result": "inhibited"}
{"Molecule": "CC(C)C[C@H](NC(=O)[C@H](CO)NC(=O)[C@H](CC(C)C)NC(=O)[C@@H]1CCCN1C(=O)Cc1ccc2ccc3cccc4ccc1c2c34)C(=O)N[C@@H](CCCNC(=N)N)C(=O)N[C@@H](CO)C(=O)N[C@@H](CCCCN)C(=O)O", "target": "Matrix metalloproteinase-9 (MMP9, Homo sapiens, UniProt P14780)", "test": "substrate, HPLC", "setting": "500 µM, 72 h, pH 7.5, 37 °C", "quantity": "hydrolysis product", "result": "75%"}
{"Molecule": "CCCCC/C=C\\C/C=C\\C/C=C\\C/C=C\\CCCC(=O)NCCO", "target": "Fatty acid-binding protein, liver (FABP1, Homo sapiens, UniProt P07148)", "test": "binding, DAUDA displacement", "setting": "concentration not given", "how to read": "reference: no competitor", "quantity": "remaining fluorescence", "result": "66 ± 5.7%"}
{"Molecule": "CCCCCc1cc(O)c(C/C=C(\\C)CCC=C(C)C)c(O)c1", "target": "Sodium channel protein type 9 subunit alpha (SCN9A, Homo sapiens, UniProt Q15858)", "test": "steady-state inactivation shift, automated patch clamp", "how to read": "reference: vehicle", "quantity": "lowest effective concentration", "result": "15 µM"}
{"Molecule": "Oc1ccc(-c2cc(-c3ccc(O)cc3)c(-c3ccc(O)cc3)[se]2)cc1", "target": "ESR1", "test": "antagonist", "test system": "HEK293T", "setting": "highest tested concentration, added: estradiol 10 nM", "how to read": "reference: estradiol alone", "quantity": "efficacy", "result": "-7 ± 2%"}
{"Molecule": "QRSATGTSSRSMGG", "target": "Kelch domain-containing protein 2", "test": "native mass spectrometry", "test system": "peptide, 200 mM ammonium acetate", "setting": "20 µM Kelch domain-containing protein 2, pH 7", "how to read": "reference: total Kelch domain-containing protein 2 signal", "quantity": "fraction of protein bound", "result": "1.7%"}
{"Molecule": "DDESIYINIPDGE", "target": "Tyrosine-protein kinase CSK (CSK, Homo sapiens, UniProt P41240)", "test": "substrate, coupled enzyme", "test system": "peptide", "setting": "pH 7.4, room temperature, added: 1 mM ATP, 5 mM MnCl2", "quantity": "kcat/Km", "result": "180 M⁻¹ s⁻¹"}
{"Molecule": "C=C1C[C@H](C)C[C@@H]2CC=C[C@@H](C/C=C\\C(=O)O[C@H]([C@@H](O)/C=C/[C@@H]3CC(C)=CCO3)C[C@@H]3O[C@H]3[C@@H](O)C1)O2", "target": "microtubules (bovine, glutaraldehyde-fixed)", "test": "competitor", "setting": "25 µM, added: [3H]peloruside A 2.5 µM", "quantity": "[3H]peloruside A bound per tubulin", "result": "0.088 ± 0.0023"}
{"Molecule": "O=Cc1ccc(COC(=O)c2ccccc2)o1", "target": "Hemoglobin subunit alpha, with sickle beta chain (HBA1, Homo sapiens, UniProt P69905)", "test": "oxygen affinity", "test system": "sickle red cell lysate", "setting": "2000 µM", "how to read": "reference: untreated", "quantity": "P50 change", "result": "38.9 ± 11.9%"}
{"Molecule": "CC(C)[C@@H](CN1CCN(c2cccc(O)c2)[C@@H](C)C1)NC(=O)c1ccc(Oc2cccc(O)c2)cc1", "target": "Mu-type opioid receptor (OPRM1, Homo sapiens, UniProt P35372)", "test": "antagonist", "test system": "CHO", "setting": "added: DAMGO", "quantity": "Ke", "result": "69 ± 14 nM"}
{"Molecule": "NWFDGTTTLWHR", "target": "HIV-1 neutralising antibody 4E10", "test": "phage binding, M13 phage ELISA", "test system": "peptide", "setting": "concentration not given", "how to read": "lower = stronger binding", "quantity": "binding titer", "result": "4.3e+07 M13/mL"}
{"Molecule": "Oc1ccc(-c2cc(Br)c(-c3ccc(O)cc3F)[se]2)c(F)c1", "target": "Estrogen receptor beta (ESR2, Homo sapiens, UniProt Q92731)", "test": "antagonist", "test system": "HEK293T", "setting": "highest tested concentration, 24 h, added: estradiol 10 nM", "how to read": "reference: estradiol alone", "quantity": "efficacy", "result": "59 ± 8%"}
{"Molecule": "O=Cc1ccc(Cl)cc1Cl", "target": "Delta-aminolevulinic acid dehydratase (Homo sapiens, UniProt P13716, C162A/K59N)", "test": "enzyme activity", "setting": "100 mM", "quantity": "remaining activity", "result": "50.7 ± 0.3%"}
{"Molecule": "CO[C@H]1[C@H](O[C@H]([C@H]2O[C@@H](n3ccc(=O)[nH]c3=O)[C@H](O)[C@@H]2O)[C@H](NCCCNC(=O)[C@H](CC(C)C)NC(=O)[C@@H](NC(=O)N[C@H](C(=O)O)C(C)C)[C@@H]2CCNC(=N)N2)C(=O)O)O[C@H](CN)[C@H]1O", "target": "Phospho-N-acetylmuramoyl-pentapeptide-transferase (mraY, Aquifex aeolicus, UniProt O66465)", "test": "enzyme activity, inhibitor, fluorescence", "how to read": "reference: Aquifex aeolicus over Staphylococcus aureus", "quantity": "IC50 ratio", "result": "~200 fold"}
{"Molecule": "COc1cc2c(cc1O)[C@@H]1Cc3ccc(O)c(OC)c3CN1CC2", "target": "Acetylcholinesterase (ache, Electrophorus electricus, UniProt O42275)", "test": "enzyme activity, inhibitor, Ellman", "setting": "up to 0.1 µg/mL", "quantity": "IC50", "result": "inactive"}
{"Molecule": "Ac-DDEPIYAELADIT-NH2 (N-acetyl, C-amide)", "target": "Csk (native)", "test": "extrapolated from GST-Csk value", "test system": "peptide", "quantity": "kcat/KM", "result": "95000 M⁻¹ s⁻¹"}
{"Molecule": "SIFDWPR (disulfide (positions not given here)) (cyclic, disulfide)", "target": "HIV-1 neutralising antibody 4E10", "test": "phage binding, M13 phage ELISA", "setting": "concentration not given", "how to read": "lower = stronger binding", "quantity": "binding titer", "result": "1.7e+06 M13/mL"}
{"Molecule": "Ac-QDEVD-pNA (N-acetyl, C-pNA; pNA = O=[N+]([O-])c1ccc(N*)cc1)", "target": "Caspase-6 (CASP6, Homo sapiens, UniProt P55212)", "test": "substrate, colorimetric p-nitroanilide release", "setting": "pH 7.25", "quantity": "kcat", "result": "1.53 ± 0.167 s⁻¹"}
{"Molecule": "CC[C@H](C)[C@@H]([C@@H](CC(=O)N1CCC[C@H]1[C@H](OC)[C@@H](C)C(=O)N[C@@H](Cc1ccccc1)c1nccs1)OC)N(C)C(=O)[C@@H](NC(=O)[C@H](C(C)C)N(C)C)C(C)C", "target": "Tubulin alpha-1B chain/TUBB2B (Bos taurus, UniProt P81947+Q6B856)", "test": "[3H]DZA binding, inhibitor", "test system": "bovine", "setting": "3 µM", "quantity": "maximal inhibition", "result": "50 to 60%"}
{"Molecule": "CC[C@H](C)[C@H](NC(=O)[C@@H]1CSSC[C@@H]2NC(=O)[C@H]([C@@H](C)O)NC(=O)[C@H](C(C)C)NC(=O)CNC(=O)[C@H](CC(N)=O)NC(=O)[C@@H](NC(=O)[C@@H]3CCCN3C(=O)[C@H](CC(N)=O)NC(=O)[C@H](CC(N)=O)NC(=O)[C@H](CC(C)C)NC(=O)[C@H](Cc3ccc(O)cc3)NC(=O)[C@H](CCCCN)NC(=O)[C@H](CO)NC(=O)[C@@H](N)CC(N)=O)CSSC[C@H](NC(=O)[C@H](CCCNC(=N)N)NC(=O)[C@H](Cc3ccc(O)cc3)NC(=O)CNC(=O)[C@H](CO)NC(=O)[C@@H]3CCCN3C2=O)C(=O)N[C@@H](CO)C(=O)N[C@@H]([C@@H](C)CC)C(=O)N[C@@H](C(C)C)C(=O)N[C@@H](CC(=O)O)C(=O)N[C@@H](CCCCN)C(=O)N[C@@H](CCC(N)=O)C(=O)N1)C(=O)N[C@@H](CCCCN)C(=O)N[C@@H](CCCCN)C(=O)N[C@@H](CCC(=O)O)C(=O)O", "target": "Transient receptor potential cation channel subfamily V member 1 (Trpv1, Mus musculus, UniProt Q704Y3, E571A)", "test": "ion current, activator, whole-cell patch clamp", "test system": "HEK293T", "setting": "pH 7.2, 22 °C", "quantity": "Hill coefficient", "result": "0.79 ± 0.08"}
{"Molecule": "nitric oxide", "target": "H-NOX ferrous, Shewanella oneidensis", "test": "ligand, CO displacement", "quantity": "koff", "result": "0.2 s⁻¹"}
{"Molecule": "IGGEGHNLQEHSVILIRGG", "target": "Kelch domain-containing protein 2", "test": "native mass spectrometry", "test system": "peptide, 200 mM ammonium acetate", "setting": "20 µM Kelch domain-containing protein 2, pH 7", "how to read": "reference: total Kelch domain-containing protein 2 signal", "quantity": "fraction of protein bound", "result": "0.5%"}
{"Molecule": "CC(C)[C@@H](CN1CCN(c2cccc(O)c2)[C@@H](C)C1)NC(=O)c1ccc(Oc2ccccc2O)cc1", "target": "Kappa-type opioid receptor (OPRK1, Homo sapiens, UniProt P41145)", "test": "antagonist", "test system": "CHO", "setting": "added: U69593", "quantity": "Ke", "result": "1.06 ± 0.26 nM"}
{"Molecule": "Oc1c(Cl)ccc(Cl)c1-c1cc(Cl)c(Cl)cc1Cl", "target": "Aequorin-1 (Aequorea victoria, UniProt P07164, C152S/C159S/C187S)", "test": "aequorin bioluminescence, inhibitor", "setting": "2 h, added: coelenterazine", "quantity": "detection limit", "result": "0.011 µM"}
{"Molecule": "RLGFYGCDLQD", "target": "Uncharacterized protein MJ1094 (Methanocaldococcus jannaschii, UniProt Q58494)", "test": "substrate, MALDI-TOF-MS", "test system": "peptide", "setting": "pH 9.0, no added anion, added: ATP", "quantity": "conversion", "result": "~50%"}
{"Molecule": "O=C1OC2(c3ccccc31)c1cc(Br)c(O)c(Br)c1Oc1c2cc(Br)c(O)c1Br", "target": "Dual specificity protein phosphatase 5 (Homo sapiens, UniProt Q16690)", "test": "enzyme inactivation, irreversible inhibitor", "setting": "1 mM DTT, added: p-nitrophenyl phosphate", "quantity": "kinact/KI", "result": "1 M⁻¹ s⁻¹"}
{"Molecule": "Oc1ccc(-c2c[se]cc2-c2ccc(O)cc2)cc1", "target": "ESR1", "test": "antagonist", "test system": "HEK293T", "setting": "highest tested concentration, added: estradiol 10 nM", "how to read": "reference: estradiol alone", "quantity": "efficacy", "result": "57 ± 2%"}
{"Molecule": "C[N+](C)(C)CCOC(N)=O.[Cl-]", "target": "Chrnb2/Chrna6 (Rattus norvegicus, UniProt P12390+P43143, L273S/L280S/L348M/R364A/R365A/R367A)", "test": "ion current, agonist", "setting": "concentration not given, rat receptor, unit not given", "how to read": "reference: acetylcholine maximum current", "quantity": "efficacy", "result": "0.87 ± 0.04"}
{"Molecule": "NCCc1cc(O)c(O)cc1O", "target": "Lysine-specific demethylase 4E (KDM4E, Homo sapiens, UniProt B2RXH2)", "test": "inhibitor, FDH-coupled", "how to read": "reference: 20 µM over 2.5 µM ferrous ammonium sulfate", "quantity": "IC50 ratio", "result": 3.1}
{"Molecule": "CC(C)(NC(=O)c1nn(CCC2CCCC2)c2ccccc12)c1cccc(C(N)=O)c1", "target": "CNR2", "test": "calcium mobilization, agonist", "test system": "CHO-K1 expressing Gαq16", "how to read": "reference: CP55,940 maximum", "quantity": "Emax", "result": "29 ± 11%"}
{"Molecule": "Oc1ccc(-c2cc(Br)c(-c3ccc(O)cc3)[se]2)cc1", "target": "ESR1", "test": "antagonist", "test system": "HEK293T", "setting": "highest tested concentration, added: estradiol 10 nM", "how to read": "reference: estradiol alone", "quantity": "efficacy", "result": "161 ± 22%"}
{"Molecule": "O=C(CCc1ccccc1)NC1CCOC1=O (stereo not shown)", "target": "Transcriptional activator protein LasR (lasR, Pseudomonas aeruginosa, UniProt P25084)", "test": "reporter gene, agonist", "test system": "Escherichia coli JLD271/pJN105L/pSC11", "setting": "100 µM", "how to read": "reference: OdDHL 100 µM", "quantity": "activation", "result": "53%"}
{"note": "Excerpt of the above:"}
{"Molecule": "Oc1ccc(-c2cc(Br)c(-c3ccc(O)cc3F)[se]2)c(F)c1", "target": "Estrogen receptor beta (ESR2, Homo sapiens, UniProt Q92731)", "test": "antagonist", "test system": "HEK293T", "setting": "highest tested concentration, 24 h, added: estradiol 10 nM", "how to read": "reference: estradiol alone", "quantity": "efficacy", "result": "59 ± 8%"}
{"Molecule": "O=Cc1ccc(Cl)cc1Cl", "target": "Delta-aminolevulinic acid dehydratase (Homo sapiens, UniProt P13716, C162A/K59N)", "test": "enzyme activity", "setting": "100 mM", "quantity": "remaining activity", "result": "50.7 ± 0.3%"}
